Published values collected from several papers.
Protocols differ between the studies behind these lines. Numbers after ± are the reported error. In brackets after ≈: the same amount, converted by molar mass.
rep main protease: Replicase polyprotein 1ab, main protease (rep, Severe acute respiratory syndrome coronavirus 2, UniProt P0DTD1)
OPRK1: Kappa-type opioid receptor (OPRK1, Homo sapiens, UniProt P41145)
Sequence of UniProt P41145 (whole entry, looked up): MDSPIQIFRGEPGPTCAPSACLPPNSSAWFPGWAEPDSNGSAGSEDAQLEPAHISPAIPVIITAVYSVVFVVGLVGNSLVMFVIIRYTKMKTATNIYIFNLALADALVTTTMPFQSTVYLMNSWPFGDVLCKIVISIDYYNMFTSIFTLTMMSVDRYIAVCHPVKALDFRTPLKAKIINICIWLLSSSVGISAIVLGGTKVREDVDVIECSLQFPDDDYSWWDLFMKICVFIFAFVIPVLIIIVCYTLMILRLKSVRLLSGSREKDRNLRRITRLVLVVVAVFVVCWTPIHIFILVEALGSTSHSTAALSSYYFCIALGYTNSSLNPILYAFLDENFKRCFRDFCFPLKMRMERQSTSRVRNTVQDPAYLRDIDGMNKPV

| SMILES | tested on | assay | test system | setting | endpoint | value |
| --- | --- | --- | --- | --- | --- | --- |
| O=C(c1cncc(Br)c1)N1CCN(C(c2ccccc2)c2ccc(Cl)cc2)CC1 (racemic) | rep main protease | enzyme activity, inhibitor | – | – | IC50 | 690 nM |
| O=C1CC(c2ccccc2)Oc2ccccc21 (stereo not drawn) | Replicase polyprotein 1ab, nsp13 helicase (rep, Severe acute respiratory syndrome coronavirus 2, UniProt P0DTD1) | helicase unwinding activity, inhibitor | – | – | IC50 | 6480 ± 530 nM |
| CCOC(=O)ONC(=O)/C=C\c1ccc([N+](=O)[O-])cc1 | rep main protease | enzyme activity, inhibitor, FRET | – | – | IC50 | 4300 nM |
| CC(C)CC(NC(=O)OCc1ccccc1)C(=O)NC(CC1CCNC1=O)C(=O)C(=O)NC1CC1 (stereo not drawn) | rep main protease | enzyme activity, inhibitor, FRET | – | pH 6.5 | IC50 | 45 nM |
| CCCC(C(=O)Nc1ccccc1C)n1c(SCc2ccc(F)cc2)nc2cccnc21 (stereo not drawn) | Replicase polyprotein 1ab, papain-like protease (rep, Severe acute respiratory syndrome coronavirus 2, UniProt P0DTD1) | enzyme activity, inhibitor | – | – | IC50 | > 20000 nM |
| C[C@@H]1O[C@@H](Oc2cc3c(=O)oc4c(O)c(O)cc5c(=O)oc(c2O)c3c45)[C@H](O)[C@H](OC(=O)c2cc(O)c(O)c(O)c2)[C@H]1OC(=O)c1cc(O)c(O)c(O)c1 | rep main protease | enzyme activity, inhibitor | – | – | IC50 | 26700 nM |
| CC(C)(C)c1ccc(N(C(=O)C(F)Cl)C(C(=O)NCCc2cccc(F)c2)c2cccnn2)cc1 (stereo not drawn) | rep main protease | enzyme activity, inhibitor | – | – | IC50 | > 20000 nM |
| CCC1CC(c2ccc(C(=O)O)cc2C)=NN1c1ccc(C#N)c(Cl)c1 (stereo not drawn) | Replicase polyprotein 1ab, methyltransferase (rep, Severe acute respiratory syndrome coronavirus 2, UniProt P0DTD1) | enzyme activity, inhibitor | – | – | IC50 | 240 nM |
| O=c1c2ccccc2sn1-c1ccccc1 | rep main protease | enzyme activity, inhibitor | – | 20 min preincubation | IC50 | 180 ± 50 nM |
| N#Cc1ccccc1C[C@@H](N)C(=O)N[C@H](Cc1ccc(Cl)cc1Cl)C(=O)NCCc1ccc(F)cc1 | rep main protease | enzyme activity, inhibitor, fluorescence | – | – | IC50 | 900 nM |
| CC(C)C[C@H](NC(=O)[C@H](CO[C@@H]1O[C@H](CO)[C@@H](O[C@@H]2O[C@H](CO)[C@H](O)[C@H](O)[C@H]2O)[C@H](O)[C@H]1O)NC(=O)[C@H](CCCCN)NC(=O)[C@H](CC(C)C)NC(=O)[C@H](C)NC(=O)[C@H](CCCCN)NC(=O)[C@H](CCC(=O)O)NC(=O)C(C)(C)NC(=O)[C@H](CC(C)C)NC(=O)[C@H](CC(N)=O)NC(=O)[C@@H]1CCCN1C(=O)[C@H](CC(C)C)NC(=O)[C@H](Cc1ccccc1)NC(=O)CNC(=O)[C@H](NC(=O)[C@@H](N)Cc1ccc(O)cc1)[C@H](C)O)C(N)=O | OPRK1 | ligand displacement, radioligand | – | pH 7.5, cell membranes | Ki | 17 nM |
| CC1=C(c2ccccc2)C1C(=O)NCc1nc(-c2ccc(F)cc2)no1 (stereo not drawn) | rep main protease | enzyme activity, inhibitor, FRET | – | – | IC50 | 67000 nM |
| CC1(C)C2CCC(CNC(=O)c3ccccc3[Se][Se]c3ccccc3C(=O)NCC3CCC4CC3C4(C)C)C1C2 (stereo not drawn) | rep main protease | enzyme activity, inhibitor | – | – | IC50 | 6130 nM |
| CN(C)C(=O)On1nnc2ccccc21 | rep main protease | enzyme activity, inhibitor | – | – | IC50 | > 100000 nM |
| O=C(/C=C/c1ccc(O)cc1)O[C@@H]1Cc2c(O)cc(O)cc2O[C@@H]1c1ccc(O)c(O)c1 | rep main protease | enzyme activity, inhibitor, FRET | – | – | IC50 | 211000 nM |
| CC[C@H](C)[C@H](NC(=O)[C@H](CCCCN)NC(=O)[C@H](CCCCN)NC(=O)[C@H](CC(C)C)NC(=O)[C@H](Cc1c[nH]c2ccccc12)NC(=O)CN)C(=O)NCC(=O)N[C@@H](CCCCN)C(=O)N[C@@H](CCCCN)C(=O)N[C@H](C(=O)N[C@@H](CCC(=O)O)C(=O)N[C@@H](CCCNC(=N)N)C(=O)N[C@H](C(=O)NCC(=O)N[C@@H](CCC(N)=O)C(=O)N[C@@H](Cc1c[nH]cn1)C(=O)N[C@H](C(=O)N[C@@H](CCCNC(=N)N)C(=O)N[C@@H](CC(=O)O)C(=O)N[C@@H](C)C(=O)N[C@H](C(=O)N[C@H](C(=O)N[C@@H](CCC(N)=O)C(=O)N[C@H](C(=O)N[C@H](C(=O)NCC(=O)N[C@H](C(=O)N[C@@H](C)C(=O)N[C@@H](CCC(N)=O)C(=O)N[C@@H](CCC(N)=O)C(=O)N[C@@H](C)C(=O)N[C@@H](C)C(=O)N[C@@H](CC(N)=O)C(=O)N[C@H](C(=O)N[C@@H](C)C(=O)N[C@@H](C)C(=O)N[C@H](C(=O)N[C@@H](CC(C)C)C(=O)N[C@@H](CCCCN)C(N)=O)[C@@H](C)O)C(C)C)C(C)C)[C@@H](C)CC)[C@@H](C)O)[C@@H](C)CC)[C@@H](C)O)[C@@H](C)O)C(C)C)[C@@H](C)CC | Klebsiella pneumoniae | – | isolate RKI 93/10, CAMHB | – | MIC | 4 µg/mL (≈ 0.952 µM) |
| Cc1cc(O)cc(C)c1C[C@H](N)C(=O)NCC(=O)NCC(=O)N[C@@H](Cc1ccccc1)C(=O)N[C@H](C(=O)NCC(=O)N[C@@H](C)C(=O)N[C@@H](CCCNC(=N)N)C(=O)N[C@@H](CCCCN)C(=O)N[C@@H](CO)C(=O)N[C@@H](C)C(=O)N[C@@H](CCCNC(=N)N)C(=O)N[C@@H](CCCCN)C(N)=O)[C@@H](C)O | OPRK1 | calcium mobilisation, agonist | CHO with Gαqi5 | kappa receptor | EC50 | 21.9 nM |
| CCCCCCCCCCCCCCCC(=O)N[C@@H](CCC(=O)NCCOCCOCCC(=O)NCCOCCOCCC(=O)NCCCC[C@H](NC(=O)[C@H](CC(=O)O)NC(=O)[C@H](CC(C)C)NC(=O)[C@H](Cc1ccc(O)cc1)NC(=O)[C@H](CCCCN)NC(=O)[C@H](CO)NC(=O)[C@H](Cc1ccc(O)cc1)NC(=O)[C@H](CC(=O)O)NC(=O)[C@H](CO)NC(=O)[C@@H](NC(=O)[C@H](Cc1ccccc1)NC(=O)[C@@H](NC(=O)CNC(=O)[C@H](CCC(N)=O)NC(=O)[C@@H](CO)NC(=O)[C@@H](N)Cc1c[nH]cn1)[C@@H](C)O)[C@@H](C)O)C(=O)N[C@@H](CCCNC(=N)N)C(=O)N[C@@H](CCCNC(=N)N)C(=O)N[C@@H](C)C(=O)N[C@@H](CCC(N)=O)C(=O)N[C@@H](CC(=O)O)C(=O)N[C@@H](Cc1ccccc1)C(=O)N[C@H](C(=O)N[C@@H](CCC(N)=O)C(=O)N[C@@H](Cc1c[nH]c2ccccc12)C(=O)N[C@@H](CC(C)C)C(=O)N[C@@H](CC(C)C)C(=O)N[C@@H](CC(N)=O)C(=O)N[C@H](C(=O)NCC(=O)NCC(=O)N1CCC[C@H]1C(=O)N[C@@H](CO)C(=O)N[C@@H](CO)C(=O)NCC(=O)N[C@@H](C)C(=O)N1CCC[C@H]1C(=O)N1CCC[C@H]1C(=O)N1CCC[C@H]1C(=O)N[C@@H](CO)C(N)=O)[C@@H](C)O)C(C)C)C(=O)O | – | item: CK | Sprague-Dawley rat, female | subcutaneous, 20 µg/kg once daily, 14 days | serum enzyme activity | 368 ± 169 U/L |
| CN(C)CCCCNC(=O)C[C@H](Cc1ccc(F)cc1)NC(=O)[C@@H](Cc1ccc(Cl)cc1Cl)NC(=O)CCc1ccccc1C#N | rep main protease | enzyme activity, inhibitor, fluorescence | – | – | IC50 | 70 nM |
| O=C1OC[C@H]2[C@@H]1CO[C@H]2c1ccc2c(c1)OCO2 | rep main protease | enzyme activity, inhibitor, FRET | – | – | IC50 | 917 ± 50 nM |
| CC(C)C[C@H](NC(=O)[C@H](CO[C@@H]1O[C@H](CO)[C@@H](O)[C@H](O)[C@H]1O)NC(=O)[C@H](CCCCN)NC(=O)[C@H](CC(C)C)NC(=O)[C@H](C)NC(=O)[C@H](CCCCN)NC(=O)[C@H](CCC(=O)O)NC(=O)C(C)(C)NC(=O)[C@H](CC(C)C)NC(=O)[C@H](CC(N)=O)NC(=O)[C@@H]1CCCN1C(=O)[C@H](CC(C)C)NC(=O)[C@H](Cc1ccccc1)NC(=O)CNC(=O)[C@H](NC(=O)[C@@H](N)Cc1ccc(O)cc1)[C@H](C)O)C(N)=O | OPRK1 | ligand displacement, radioligand | – | pH 7.5, cell membranes | Ki | 12 nM |

Excerpt of the above:
| SMILES | tested on | assay | test system | setting | endpoint | value |
| --- | --- | --- | --- | --- | --- | --- |
| CCOC(=O)ONC(=O)/C=C\c1ccc([N+](=O)[O-])cc1 | rep main protease | enzyme activity, inhibitor, FRET | – | – | IC50 | 4300 nM |
